Assay results from different studies.
± marks the error that the study gave.
Technique: steady-state kinetics
B1: enzyme E217L/L163H/N249W (Thermobifida fusca, UniProt Q47RK4); chain MTDVYILDAVRTPFGRYGGALSGIRPDDLAAHVLRALAERSPGLDPAAVDDVFFGDANGAGEDNRNVARMAALLAGWPTSVPGVTLNRLCGSGMESVIAANRAIAVGDASLAVAGGVESMSRAPWVLPKPAQGFPTGHETLYSTTLGWRMVNPAMPEQWTVSHGESTEQVAATYGISRAEQDAFALRSHERAARAWAEGVFDAEITQIPGAELERDLSIRETSAEKLAALKPAFRPDGTITAGNASPLWDGAAALLIGDAAAAERVGREPLARIVSRGVAAVDPDVFGIGPVQAAEIALRRAGIGWDDLSVVELNEAFAAQSLACLKLWPDLDPEIVNPNGGAIAIGHPLGASGARIVGTLAHELHRRGGGWGLAAICIGVGQGLAVVLHR
B2: Lxyl-p1-1 A72T/V91S (Lentinula edodes, UniProt G8GLN9); chain YFSGLGLGSERSIFRRDLNSTGDESNSTQWPAPLANGGKSWASAFKKAKSTVTEMTVEELANITSGVIGLCSGVTGAVTRLGIPELCLQDGPIGPRGVHGSSQFPAGLTVAATWDRTLMYARARGMGQEFHDQGVHIALAPVTGGPLGRTPLNGRGWEGTFADPYACGEASYQSVKGLTDAGVATVSKHWIAYEQETSRNLYIEFDGVSQADIQLPISSNVDDLTMHELYMWSFAEAVRAGTNHIMCSYNRINNTHSCNNAKGLNQLLKTELNFQGGVVSDWGGQWDSVLSAENGLDVGMPGEGFLGELGDFWGTTLADLINNGTVSEDLVRDKVVRLLTGYYYLGQDINPPPPFVYNTIGAPTLNATSGYRNVRKPGTAELIKEIGSASVTLLKNTGSLPLKHPQRIAVLGNDATYNVLGPNACGLANSACDIDNLNGTLTTGGGSGSALSPYTITPLEALQKRAIEDNAEIAAVVANSNTTTGAEDAIAALLPDADVTFVFLNRYSEEGADAPDFSLGGDGDNLMDLAVTYSSNVVVVIHTTGVVDIEKWADNPNVTAILVAYLPGQEAGNSLVPVLYGDVAPSGKLPWTWGKSIDDYVPNGVVYTDAYSPQSNFTEGVFIDYRWFDKMGITPRYEFGFGLSYTTFTYSNLIVDHGRWAKDYSSVMETAEPFAEWDGTNSLYDVIFTVFATITNTGNLTGSEVAQLYISIPGDNQPVRQLRGFDKIKDLPVGDSAVVTFPIRRKDVSSWSVVDQLWYVPNGDFLISVGGSSRDLPLNTTWTP
B3: enzyme N249W (Thermobifida fusca, UniProt Q47RK4); chain MTDVYILDAVRTPFGRYGGALSGIRPDDLAAHVLRALAERSPGLDPAAVDDVFFGDANGAGEDNRNVARMAALLAGWPTSVPGVTLNRLCGSGMESVIAANRAIAVGDASLAVAGGVESMSRAPWVLPKPAQGFPTGHETLYSTTLGWRMVNPAMPEQWTVSLGESTEQVAATYGISRAEQDAFALRSHERAARAWAEGVFDAEITQIPGAELERDESIRETSAEKLAALKPAFRPDGTITAGNASPLWDGAAALLIGDAAAAERVGREPLARIVSRGVAAVDPDVFGIGPVQAAEIALRRAGIGWDDLSVVELNEAFAAQSLACLKLWPDLDPEIVNPNGGAIAIGHPLGASGARIVGTLAHELHRRGGGWGLAAICIGVGQGLAVVLHR
B4: CPN1 (Homo sapiens, UniProt P15169); chain VTFRHHRYDDLVRTLYKVQNECPGITRVYSIGRSVEGRHLYVLEFSDHPGIHEPLEPEVKYVGNMHGNEALGRELMLQLSEFLCEEFRNRNQRIVQLIQDTRIHILPSMNPDGYEVAAAQGPNKPGYLVGRNNANGVDLNRNFPDLNTYIYYNEKYGGPNHHLPLPDNWKSQVEPETRAVIRWMHSFNFVLSANLHGGAVVANYPYDKSFEHRVRGVRRTASTPTPDDKLFQKLAKVYSYAHGWMFQGWNCGDYFPDGITNGASWYSLSKGMQDFNYLHTNCFEITLELSCDKFPPEEELQREWLGNREALIQFLEQVHQGIKGMVLDENYNNLANAVISVSGINHDVTSGDHGDYFRLLLPGIYTVSATAPGYDPETVTVTVGPAEPTLVNFHLKRSIPQVSPVRRAPSRRHGVRAKVQPQARKKEMEMRQLQRGPA
B5: protein E15D (Rhodopseudomonas palustris, UniProt Q6N3R9); chain MSNVRVLATDLAFPDGPVVMPDGSVVLVEIRAQQLTRVWPDGRKEVVAKVPGGPNGAALGPDGKMYICNNGGFGWFPSRGTMMPGAPAPHEYIGGSIQRVDLQSGEVETLFDKCGEHPLKGPNDLVFDKHGGLWFTDLGKRRARDMDVGAAYYIKPGMTEITEQVFGTLPLNGIGLSPDEATMYAAETPTGRLWAFDLSGPGEVKPRDVIYRGEKGKPICGLGGYQMFDSLAVEASGNVCVATLVSGCISVIAPDGTLVEQVPTGDRVTTNIAFGGPDLKTAYITLSGKGELIAMDWSRPGLPLNFLNK
B6: enzyme (Streptomyces coelicolor, UniProt Q9F1Y6); chain MPDSGTLGTPPPEQGPTPPTTLPDVPAPVIPSASVTSAASDFLAALHPPVTVPDPAPPPPPAPAAGNPPDTVTGDSVLQRILRGPTGPGTTSLAPAVRYGRQPGPEAPASAPPAAGRAVPGLYHHPVPEPDPVRVEEVSRRIKRWAEDEVQLYPEEWEGQFDGFSVGRYMVGCHPDAPTVDHLMLATRLMVAENAVDDCYCEDHGGSPVGLGGRLLLAHTAIDHFHSTAEYTPTWQASLAADAPRRAYDSAMGYFVRAATPSQSDRYRHDMARLHLGYLAEGAWAQTGHVPEVWEYLAMRQFNNFRPCPTITDTVGGYELPADLHARPDMQRVIALAGNATTIVNDLYSYTKELNSPGRHLNLPVVIAEREQLCERDAYLKAVEVHNELQHSFEAAAADLAEACPLPPVLRFLRGVAAWVDGNHDWHRTNTYRYSLPDFW
Sequence of UniProt G3XD23 (whole entry, looked up): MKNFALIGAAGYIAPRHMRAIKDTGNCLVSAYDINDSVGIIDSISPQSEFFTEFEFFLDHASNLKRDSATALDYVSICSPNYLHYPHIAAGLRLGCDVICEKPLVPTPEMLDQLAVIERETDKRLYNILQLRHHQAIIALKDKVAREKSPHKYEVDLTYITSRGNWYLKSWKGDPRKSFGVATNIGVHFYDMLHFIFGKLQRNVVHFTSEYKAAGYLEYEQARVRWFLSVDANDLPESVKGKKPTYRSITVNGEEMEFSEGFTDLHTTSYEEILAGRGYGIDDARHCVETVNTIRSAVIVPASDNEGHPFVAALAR
Sequence of UniProt Q8ZMX2 (whole entry, looked up): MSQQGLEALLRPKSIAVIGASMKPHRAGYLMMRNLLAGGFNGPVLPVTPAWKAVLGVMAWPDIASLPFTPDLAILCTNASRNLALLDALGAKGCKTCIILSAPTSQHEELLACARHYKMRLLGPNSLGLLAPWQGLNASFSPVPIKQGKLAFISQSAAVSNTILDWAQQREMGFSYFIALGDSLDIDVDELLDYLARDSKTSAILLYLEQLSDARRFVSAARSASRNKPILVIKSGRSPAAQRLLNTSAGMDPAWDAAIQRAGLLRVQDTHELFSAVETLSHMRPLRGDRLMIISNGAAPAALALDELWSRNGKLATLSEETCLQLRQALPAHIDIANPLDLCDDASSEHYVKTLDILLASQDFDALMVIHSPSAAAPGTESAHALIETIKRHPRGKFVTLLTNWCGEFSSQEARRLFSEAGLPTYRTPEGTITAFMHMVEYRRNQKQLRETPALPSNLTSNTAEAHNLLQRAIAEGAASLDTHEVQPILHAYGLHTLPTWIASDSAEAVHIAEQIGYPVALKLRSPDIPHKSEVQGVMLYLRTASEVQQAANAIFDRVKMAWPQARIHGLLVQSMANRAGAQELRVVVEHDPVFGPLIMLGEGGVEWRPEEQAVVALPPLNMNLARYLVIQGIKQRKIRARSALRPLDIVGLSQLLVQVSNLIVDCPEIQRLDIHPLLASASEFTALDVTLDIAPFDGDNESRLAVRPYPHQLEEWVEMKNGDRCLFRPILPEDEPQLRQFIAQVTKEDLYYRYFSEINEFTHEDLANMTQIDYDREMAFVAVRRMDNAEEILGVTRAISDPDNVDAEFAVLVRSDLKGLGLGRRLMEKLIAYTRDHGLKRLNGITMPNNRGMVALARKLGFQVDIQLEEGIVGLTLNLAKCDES
Sequence of UniProt Q44467 (whole entry, looked up): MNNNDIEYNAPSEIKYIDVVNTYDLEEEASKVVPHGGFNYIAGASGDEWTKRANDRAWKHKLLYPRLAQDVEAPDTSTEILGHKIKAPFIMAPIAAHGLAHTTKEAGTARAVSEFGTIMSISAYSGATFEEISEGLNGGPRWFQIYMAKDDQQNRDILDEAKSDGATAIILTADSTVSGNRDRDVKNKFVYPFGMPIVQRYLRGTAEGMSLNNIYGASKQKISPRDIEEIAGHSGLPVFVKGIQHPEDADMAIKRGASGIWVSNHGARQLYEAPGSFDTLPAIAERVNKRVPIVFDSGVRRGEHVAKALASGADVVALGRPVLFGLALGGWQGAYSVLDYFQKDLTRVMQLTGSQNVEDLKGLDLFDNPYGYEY
Sequence of UniProt Q6XEC0 (whole entry, looked up): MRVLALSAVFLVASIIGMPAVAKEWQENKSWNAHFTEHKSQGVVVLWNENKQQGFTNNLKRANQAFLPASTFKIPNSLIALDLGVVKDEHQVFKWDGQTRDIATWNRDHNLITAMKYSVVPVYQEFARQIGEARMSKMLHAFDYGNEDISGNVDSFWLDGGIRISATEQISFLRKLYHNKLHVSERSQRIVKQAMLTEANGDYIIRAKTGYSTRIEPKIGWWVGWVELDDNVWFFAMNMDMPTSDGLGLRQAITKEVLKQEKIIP
Sequence of UniProt P33378 (whole entry, looked up): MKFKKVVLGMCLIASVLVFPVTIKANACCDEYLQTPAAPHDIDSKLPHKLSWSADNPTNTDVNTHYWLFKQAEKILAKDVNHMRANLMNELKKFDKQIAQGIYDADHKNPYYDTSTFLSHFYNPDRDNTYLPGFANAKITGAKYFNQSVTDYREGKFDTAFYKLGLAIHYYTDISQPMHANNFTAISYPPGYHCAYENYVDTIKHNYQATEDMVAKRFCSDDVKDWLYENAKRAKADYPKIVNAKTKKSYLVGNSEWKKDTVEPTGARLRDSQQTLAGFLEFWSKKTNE

| Substance | substrate | pH | temperature | notes | with | kcat/Km [M⁻¹ s⁻¹] |
| --- | --- | --- | --- | --- | --- | --- |
| Cj1427c (Campylobacter jejuni, UniProt Q0P8I7) | Nc1nc2c(ncn2[C@@H]2O[C@H](COP(=O)(O)OP(=O)(O)O[C@H]3O[C@H]([C@H](O)CO)[C@@H](O)[C@H](O)[C@@H]3O)[C@@H](O)[C@H]2O)c(=O)[nH]1 | pH 7.4 | 30 °C | apparent | – | 10200 ± 800 |
| B1 (enzyme E217L/L163H/N249W) | CC(C)(COP(=O)(O)OP(=O)(O)OC[C@H]1O[C@@H](n2cnc3c(N)ncnc32)[C@H](O)[C@@H]1OP(=O)(O)O)[C@@H](O)C(=O)NCCC(=O)NCCSC(=O)CCCC(=O)O | pH 7.4 | 37 °C | – | – | 2.33 |
| OXA-48 (Klebsiella pneumoniae, UniProt Q6XEC0) | CO/N=C(\C(=O)N[C@@H]1C(=O)N2C(C(=O)O)=C(COC(C)=O)CS[C@H]12)c1csc(N)n1 | pH 7.2 | 30 °C | – | – | 4700 |
| B2 (Lxyl-p1-1 A72T/V91S) | [H][C@]12[C@H](OC(=O)c3ccccc3)[C@]3(O)C[C@H](OC(=O)[C@H](O)[C@@H](NC(=O)c4ccccc4)c4ccccc4)C(C)=C([C@@H](O)C(=O)[C@]1(C)[C@@H](O[C@@H]1OC[C@@H](O)[C@H](O)[C@H]1O)C[C@@]1([H])OC[C@@]21OC(C)=O)C3(C)C | – | – | – | – | 11200 ± 560 |
| B3 (enzyme N249W) | CC(C)(COP(=O)(O)OP(=O)(O)OC[C@H]1O[C@@H](n2cnc3c(N)ncnc32)[C@H](O)[C@@H]1OP(=O)(O)O)[C@@H](O)C(=O)NCCC(=O)NCCSC(=O)CCCC(=O)O | pH 7.4 | 37 °C | – | – | 1.5 |
| B4 (CPN1) | C[C@H](NC(=O)[C@H](Cc1ccccc1)NC(=O)[C@H](CCC(N)=O)NC(=O)CNC(=O)[C@@H]1CCCN1C(=O)[C@H](Cc1ccccc1)NC(=O)[C@@H](N)Cc1ccc(O)cc1)C(=O)N[C@@H](Cc1ccccc1)C(=O)N[C@@H](CO)C(=O)N[C@@H](CCCCN)C(=O)O | – | 37 °C | – | – | 470000 |
| ω-transaminase A60V/E38Q/I154V/M128F/P9A/S87N/W58G (Pseudomonas jessenii) | O=C1CCc2ccccc21 | pH 8 | 56 °C | apparent | isopropylamine 1 M, PLP 0.05 mM | 800 ± 100 |
| pat (Salmonella enterica, UniProt Q8ZMX2) | CC(=O)SCCNC(=O)CCNC(=O)[C@H](O)C(C)(C)COP(=O)(O)OP(=O)(O)OC[C@H]1O[C@@H](n2cnc3c(N)ncnc32)[C@H](O)[C@@H]1OP(=O)(O)O | pH 7.5 | 37 °C | apparent, sigmoidal fit | AcsC 400 µM | 420000 ± 20000 |
| B5 (protein E15D) | O=C1CCc2ccccc2O1 | pH 8 | – | NaCl 150 mM, no saturation | CaCl2 1 mM | 4000 |
| MilB F17Y (Streptomyces rimofaciens) | Nc1ccn([C@@H]2O[C@H](COP(=O)(O)O)[C@@H](O)[C@H]2O)c(=O)n1 | pH 7.5 | 37 °C | – | – | 0.046 |
| B6 (enzyme) | CC(C)=CCC/C(C)=C(\C)COP(=O)(O)OP(=O)(O)O | pH 6.7 | 30 °C | – | – | 1110 |
| protein (Rhodopseudomonas palustris, UniProt Q6N3R9) | CC(=O)Oc1ccccc1 | pH 8.3 | – | NaCl 150 mM, no saturation | CaCl2 1 mM | 3190 |
| wbpB (Pseudomonas aeruginosa, UniProt G3XD23) | CC(=O)N[C@H]1[C@@H](OP(=O)(O)OP(=O)(O)OC[C@H]2O[C@@H](n3ccc(=O)[nH]c3=O)[C@H](O)[C@@H]2O)O[C@H](C(=O)O)[C@@H](O)[C@@H]1O | pH 8.5 | 25 °C | – | – | 2.2e+07 |
| L-lactate oxidase (Aerococcus viridans, UniProt Q44467) | O=C1C(Cl)=CC(=Nc2ccc(O)cc2)C=C1Cl | pH 6.5 | 22 °C | varied electron acceptor, apparent | L-lactic acid 200 mM | 118000 |
| dmhA (Campylobacter jejuni, UniProt Q5M6Q7) | Nc1nc2c(ncn2[C@@H]2O[C@H](COP(=O)(O)OP(=O)(O)O[C@H]3O[C@H]([C@H](O)CO)[C@@H](O)[C@H](O)[C@@H]3O)[C@@H](O)[C@H]2O)c(=O)[nH]1 | pH 7.5 | 30 °C | – | – | 27000 ± 3000 |
| plcB (Listeria monocytogenes, UniProt P33378) | CCCCCC(=O)OC[C@H](COP(=O)([O-])OCC[N+](C)(C)C)OC(=O)CCCCC | pH 6 | 37 °C | – | – | 4600 ± 1900 |

Repeated from above:
| Substance | substrate | pH | temperature | notes | with | kcat/Km [M⁻¹ s⁻¹] |
| --- | --- | --- | --- | --- | --- | --- |
| B3 (enzyme N249W) | CC(C)(COP(=O)(O)OP(=O)(O)OC[C@H]1O[C@@H](n2cnc3c(N)ncnc32)[C@H](O)[C@@H]1OP(=O)(O)O)[C@@H](O)C(=O)NCCC(=O)NCCSC(=O)CCCC(=O)O | pH 7.4 | 37 °C | – | – | 1.5 |
